{"data": "Results from different studies", "note": "Numbered parts are unrelated; each lists some results of a single study. “And” joins repeats or separate records; there may be more than shown.", "sequence of UniProt Q8NEV4 (whole entry, looked up)": "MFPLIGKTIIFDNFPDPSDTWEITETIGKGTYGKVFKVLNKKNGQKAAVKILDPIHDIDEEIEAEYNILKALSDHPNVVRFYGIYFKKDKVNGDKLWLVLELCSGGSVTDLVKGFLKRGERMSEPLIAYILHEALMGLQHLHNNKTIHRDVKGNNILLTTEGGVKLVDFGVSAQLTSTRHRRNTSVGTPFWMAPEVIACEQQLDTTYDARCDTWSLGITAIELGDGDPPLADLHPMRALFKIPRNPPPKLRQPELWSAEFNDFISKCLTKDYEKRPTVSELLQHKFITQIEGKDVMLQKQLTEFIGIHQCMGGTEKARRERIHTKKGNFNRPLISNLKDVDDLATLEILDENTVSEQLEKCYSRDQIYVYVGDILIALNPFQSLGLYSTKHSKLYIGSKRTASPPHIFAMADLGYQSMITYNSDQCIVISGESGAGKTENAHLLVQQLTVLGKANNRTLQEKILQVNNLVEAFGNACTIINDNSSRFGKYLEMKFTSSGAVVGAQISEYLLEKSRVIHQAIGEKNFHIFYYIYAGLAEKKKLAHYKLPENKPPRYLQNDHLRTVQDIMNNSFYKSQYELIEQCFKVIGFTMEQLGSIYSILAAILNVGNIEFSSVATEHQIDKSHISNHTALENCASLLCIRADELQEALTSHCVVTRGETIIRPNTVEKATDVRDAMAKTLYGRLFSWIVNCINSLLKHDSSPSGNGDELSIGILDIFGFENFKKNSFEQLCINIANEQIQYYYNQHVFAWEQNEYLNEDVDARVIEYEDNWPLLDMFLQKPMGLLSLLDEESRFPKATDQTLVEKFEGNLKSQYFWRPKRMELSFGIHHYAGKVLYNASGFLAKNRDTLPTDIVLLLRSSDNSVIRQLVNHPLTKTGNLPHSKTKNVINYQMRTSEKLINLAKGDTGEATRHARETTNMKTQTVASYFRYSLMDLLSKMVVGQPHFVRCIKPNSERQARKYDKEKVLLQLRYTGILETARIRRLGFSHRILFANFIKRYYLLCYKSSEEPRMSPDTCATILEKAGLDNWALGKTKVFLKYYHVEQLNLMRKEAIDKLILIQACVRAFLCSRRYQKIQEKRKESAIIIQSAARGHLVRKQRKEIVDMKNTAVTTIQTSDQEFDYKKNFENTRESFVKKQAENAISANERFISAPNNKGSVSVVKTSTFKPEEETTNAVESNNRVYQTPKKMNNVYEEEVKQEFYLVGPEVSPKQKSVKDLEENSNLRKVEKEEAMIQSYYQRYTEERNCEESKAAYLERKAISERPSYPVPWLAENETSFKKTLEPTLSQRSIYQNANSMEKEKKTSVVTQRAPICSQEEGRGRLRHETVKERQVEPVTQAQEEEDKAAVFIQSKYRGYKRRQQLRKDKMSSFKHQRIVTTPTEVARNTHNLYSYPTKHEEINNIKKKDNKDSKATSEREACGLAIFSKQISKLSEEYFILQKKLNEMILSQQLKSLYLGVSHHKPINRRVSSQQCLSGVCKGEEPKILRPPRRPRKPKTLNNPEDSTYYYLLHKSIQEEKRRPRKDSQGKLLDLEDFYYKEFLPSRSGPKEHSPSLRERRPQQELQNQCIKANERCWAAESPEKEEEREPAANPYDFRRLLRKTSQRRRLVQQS", "sequence of UniProt P00519 (whole entry, unmodified, looked up)": "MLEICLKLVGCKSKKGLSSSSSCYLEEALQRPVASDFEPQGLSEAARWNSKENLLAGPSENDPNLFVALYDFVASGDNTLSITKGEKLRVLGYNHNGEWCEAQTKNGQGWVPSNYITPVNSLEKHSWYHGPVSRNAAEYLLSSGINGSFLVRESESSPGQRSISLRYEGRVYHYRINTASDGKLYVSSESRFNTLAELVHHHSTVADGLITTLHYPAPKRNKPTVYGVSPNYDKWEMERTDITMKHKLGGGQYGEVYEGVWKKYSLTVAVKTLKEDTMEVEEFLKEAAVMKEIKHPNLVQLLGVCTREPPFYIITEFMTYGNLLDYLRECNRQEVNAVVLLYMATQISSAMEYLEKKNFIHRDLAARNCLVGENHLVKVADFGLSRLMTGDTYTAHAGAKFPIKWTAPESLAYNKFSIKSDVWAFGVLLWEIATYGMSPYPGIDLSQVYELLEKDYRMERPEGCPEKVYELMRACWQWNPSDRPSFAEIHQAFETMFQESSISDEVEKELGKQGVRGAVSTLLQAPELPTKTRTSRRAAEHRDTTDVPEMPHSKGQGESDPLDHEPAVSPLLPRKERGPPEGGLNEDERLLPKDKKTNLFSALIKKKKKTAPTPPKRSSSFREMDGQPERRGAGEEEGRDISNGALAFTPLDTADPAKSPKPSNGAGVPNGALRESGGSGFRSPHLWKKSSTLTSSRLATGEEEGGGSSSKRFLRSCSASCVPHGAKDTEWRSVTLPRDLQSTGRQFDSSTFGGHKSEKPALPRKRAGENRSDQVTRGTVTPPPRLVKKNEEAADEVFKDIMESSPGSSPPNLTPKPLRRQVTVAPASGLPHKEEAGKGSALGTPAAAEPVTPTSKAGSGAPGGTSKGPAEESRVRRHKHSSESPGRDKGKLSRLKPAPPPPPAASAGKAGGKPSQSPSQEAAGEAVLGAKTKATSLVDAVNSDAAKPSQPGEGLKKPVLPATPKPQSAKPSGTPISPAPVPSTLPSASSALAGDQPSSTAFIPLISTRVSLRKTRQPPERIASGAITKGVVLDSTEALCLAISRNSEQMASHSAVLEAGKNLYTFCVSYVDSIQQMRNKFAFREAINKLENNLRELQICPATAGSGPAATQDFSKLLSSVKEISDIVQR", "sequence of UniProt Q9NRH2 (whole entry, looked up)": "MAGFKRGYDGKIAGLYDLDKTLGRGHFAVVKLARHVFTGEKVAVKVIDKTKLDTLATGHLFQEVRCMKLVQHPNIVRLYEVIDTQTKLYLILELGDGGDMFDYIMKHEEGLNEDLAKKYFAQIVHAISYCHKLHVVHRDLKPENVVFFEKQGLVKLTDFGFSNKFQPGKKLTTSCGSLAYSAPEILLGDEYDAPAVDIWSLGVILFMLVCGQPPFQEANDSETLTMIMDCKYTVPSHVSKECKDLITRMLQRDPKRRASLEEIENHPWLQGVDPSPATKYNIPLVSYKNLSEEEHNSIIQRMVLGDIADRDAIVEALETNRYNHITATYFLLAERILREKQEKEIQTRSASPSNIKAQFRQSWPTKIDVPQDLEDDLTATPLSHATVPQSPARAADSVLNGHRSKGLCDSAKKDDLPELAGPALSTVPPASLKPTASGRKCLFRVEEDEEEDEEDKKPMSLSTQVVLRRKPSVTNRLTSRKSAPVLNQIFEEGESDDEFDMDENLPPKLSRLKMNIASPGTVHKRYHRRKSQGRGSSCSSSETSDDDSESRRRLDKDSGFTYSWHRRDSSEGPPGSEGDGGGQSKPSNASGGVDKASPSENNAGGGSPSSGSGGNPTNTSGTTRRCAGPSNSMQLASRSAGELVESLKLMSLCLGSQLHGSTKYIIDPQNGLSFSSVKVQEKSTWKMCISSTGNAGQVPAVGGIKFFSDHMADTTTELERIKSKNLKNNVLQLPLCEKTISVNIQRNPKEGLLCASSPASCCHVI"}
{"data": "Series 1", "SMILES": "CNC(=O)c1ccc(Nc2ncc(C(F)(F)F)c(NCc3nccnc3N(C)S(C)(=O)=O)n2)cc1"}
{"target": "Tyrosine-protein kinase ABL1, phosphorylated (ABL1, Homo sapiens, UniProt P00519, F317L)", "observed": "cell-free assay", "method": "competition with immobilised ligand", "concentration": "0.1 µM", "remaining binding": "93%"}
{"target": "EGFR (Homo sapiens, UniProt P00533, del746-750)", "observed": "cell-free assay", "method": "competition with immobilised ligand", "concentration": "0.1 µM", "remaining binding": "91%"}
{"target": "CDC42BPG (Homo sapiens, UniProt Q6DT37)", "method": "competition binding", "concentration": "0.1 µM", "remaining binding": "80%"}
{"target": "MAP3K9 (Homo sapiens, UniProt P80192)", "observed": "cell-free assay", "method": "competition with immobilised ligand", "concentration": "0.1 µM", "remaining binding": "44%"}
{"target": "ROS1 (Homo sapiens, UniProt P08922)", "observed": "cell-free assay", "method": "competition with immobilised ligand", "concentration": "0.1 µM", "remaining binding": "58%"}
{"target": "WNK1 (Homo sapiens, UniProt Q9H4A3)", "observed": "cell-free assay", "method": "competition with immobilised ligand", "concentration": "0.1 µM", "remaining binding": "100%"}
{"target": "Myosin-IIIa (MYO3A, Homo sapiens, UniProt Q8NEV4)", "observed": "binding", "method": "competition with immobilised ligand", "concentration": "0.1 µM", "remaining binding": "100%"}
{"target": "SNRK (Homo sapiens, UniProt Q9NRH2)", "observed": "cell-free assay", "method": "competition with immobilised ligand", "concentration": "0.1 µM", "remaining binding": "100%"}
{"target": "PAK5 (Homo sapiens, UniProt Q9P286)", "observed": "cell-free assay", "method": "competition with immobilised ligand", "concentration": "0.1 µM", "remaining binding": "62%"}
{"target": "BMPR2 (Homo sapiens, UniProt Q13873)", "observed": "cell-free assay", "method": "competition with immobilised ligand", "concentration": "0.1 µM", "remaining binding": "91%"}
{"target": "MARK3 (Homo sapiens, UniProt P27448)", "observed": "cell-free assay", "method": "competition with immobilised ligand", "concentration": "0.1 µM", "remaining binding": "90%"}
{"target": "EGFR (Homo sapiens, UniProt P00533, del752-759)", "observed": "cell-free assay", "method": "competition with immobilised ligand", "concentration": "0.1 µM", "remaining binding": "85%"}
{"target": "FLT3 (Homo sapiens, UniProt P36888, N841I)", "observed": "binding", "method": "competition with immobilised ligand", "concentration": "1 µM", "remaining binding": "0%"}
{"target": "PIK3CA (Homo sapiens, UniProt P42336, Q546K)", "observed": "cell-free assay", "method": "competition with immobilised ligand", "concentration": "0.1 µM", "remaining binding": "17%"}
{"target": "PLK2 (Homo sapiens, UniProt Q9NYY3)", "observed": "cell-free assay", "method": "competition with immobilised ligand", "concentration": "0.1 µM", "remaining binding": "77%"}
{"data": "Series 2", "species": "human", "matrix": "microsomes or S9", "concentration": "2 µM", "time": "0.5 h"}
{"SMILES": "CC(C)OC(=O)c1c(NC(=O)CN2CCN(C)CC2)sc2c1CCCC2", "remaining compound [%]": 41.3}
{"SMILES": "O=c1[nH]c2ncccc2n1Cc1nnc2ccc(-c3cccc(F)c3)nn12", "remaining compound [%]": "> 99"}
{"SMILES": "CC(CC(=O)c1cccs1)NC(=O)C(C)n1cncn1 (stereo not drawn)", "remaining compound [%]": 101}
{"data": "Series 3", "SMILES": "c1ccc(Oc2ccc(Nc3c4c(nc5ccccc35)CCC4)cc2)cc1"}
{"cell line": "HEK293", "method": "resazurin", "concentration": "0.00332 µM", "notes": "10% serum", "cytotoxicity": "3% and 7%"}
{"cell line": "PMA-differentiated THP-1 macrophages", "concentration": "0.8 µM", "time": "64 h", "cytotoxicity": "4% and 1%"}
{"cell line": "HEK293", "method": "resazurin", "concentration": "1.66 µM", "notes": "10% serum", "cytotoxicity": "10%"}
{"data": "Series 4", "SMILES": "CC(C)n1cnc(-c2ccc(F)cc2)c1-c1ncc(C(=O)Nc2ccc(N3CCN(C)CC3)cc2)[nH]1", "method": "phase 2a trial", "species": "idiopathic pulmonary fibrosis patients"}
{"dose": "60 mg once daily", "notes": "adverse event grade 1", "patients with abdominal distension": "0%"}
{"dose": "30 mg once daily", "notes": "adverse event grade 5", "patients with abdominal distension": "0%"}
{"dose": "dose not given", "notes": "adverse event grade 3, all dose arms pooled", "patients with abdominal distension": "0%"}
{"data": "Series 5", "cell line": "UACC-903 melanoma"}
{"SMILES": "COCC(=O)O[C@]1(CCN(C)CCCc2nc3ccccc3[nH]2)CCc2cc(F)ccc2[C@@H]1C(C)C", "IC50": "5.2 µM"}
{"SMILES": "CCCCCCCCNC(C)C(O)c1ccc(SC(C)C)cc1 (stereo not drawn)", "IC50": "6.5 µM"}
{"SMILES": "COCCCC/C(=N\\OCCN)c1ccc(C(F)(F)F)cc1", "IC50": "28.6 µM"}
{"data": "Series 6", "target": "RNA binding protein fox-1 homolog 2, RRM domain, GST-SBP tag (RBFOX2, Homo sapiens, UniProt O43251-10, residues 100-194)", "method": "RNA Bind-n-Seq", "molecule type": "RNA", "matrix": "in vitro", "concentration": "365 nM", "notes": "natural RNA segment, single round, ends assumed", "baseline": "no-protein control", "reading": "higher = stronger binding", "Residues (chain)": "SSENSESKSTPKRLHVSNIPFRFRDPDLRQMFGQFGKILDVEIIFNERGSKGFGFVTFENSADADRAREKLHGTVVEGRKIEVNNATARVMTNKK"}
{"Sequence": "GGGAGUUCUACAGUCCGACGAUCGAUUCCACUCAGAACCUCUCUGGAAUUUGUGCCUGAUGUGCCUUCCACUGGAUUUUGGGGUUCCCAGCACCCCAUGUGGAUUUUGGGGGGUCCCUUUUGUGUCUCCCCCGUGGAAUUCUCGGGUGCCAA", "RBNS enrichment (R)": 0.326}
{"Sequence": "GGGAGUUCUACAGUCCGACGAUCAAUGCCUUCUCCCUGACCUUGACACUUCCCCCUUUAGCUAUAAAAGCACUUACCAGCCGAACGUGGAACAGUAUCACAAAAGAUUCCAUCUCCCAACGAUUUCAGAACUCUGGAAUUCUCGGGUGCCAA", "RBNS enrichment (R)": 0.551}
{"Sequence": "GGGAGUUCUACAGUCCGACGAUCAUUAAGCAUGGCAUAAGAAGAUAUGAUUGUGUGUCAAGGUGACAAGGGGUGAACUUCAGAUGGCUCUUCUUGGUUGUCAGCCCGACUACAUUUGGAAUUAACUGAAGCCAUGGAAUUCUCGGGUGCCAA", "RBNS enrichment (R)": 1.94}
{"Sequence": "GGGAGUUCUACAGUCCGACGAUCCUUUUUGCUGUACAAAUCUGUUUAAAAAAAAAAAAAAGUAACUCAUUGAAUUAACUUGCAGUGGUGUGUUUGAUUCUUUUUUAGACUGGCUUCAGCAUUGUGCAGUUUAAUGGAAUUCUCGGGUGCCAA", "RBNS enrichment (R)": 0.654}
{"Sequence": "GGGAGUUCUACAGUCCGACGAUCAAGUAUGGUAAUCUUUACCUGUAUACAGUGCAGAGCCUUCUCAGAAGCACAGAAUAUUUUUAUAUUUCCUUUAUGUGAAUUUUUAAGCUGCAAAUCUGAUGGCCUUAAUUUGGAAUUCUCGGGUGCCAA", "RBNS enrichment (R)": 0.283}
{"Sequence": "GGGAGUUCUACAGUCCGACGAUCAAGCUGCCCGGGAGGGUGGGUGCAGACACAGGCUGAGGACCAGCCCUGGCCCUGCCCCGCCAUCUGCUUUCACCAAGCUGUCUCUCCACCGUGGCUUCCCUUCUCCCUCCUGGAAUUCUCGGGUGCCAA", "RBNS enrichment (R)": 0.37}
{"Sequence": "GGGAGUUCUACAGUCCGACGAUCGUAGUGUAAGUGGAGAACCAGGAUCCUGAGAUGAGCUUGAGCUUUAAAAACUUGGGACUAUACAUGGUGAACUUACAGGAGGUUAGGGGGGAAAUAUUACUUAUCCAUCAUGGAAUUCUCGGGUGCCAA", "RBNS enrichment (R)": 0.388}
{"Sequence": "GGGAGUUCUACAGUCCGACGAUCAGUAGGGGGACCAUUGGGGACAUCACAGAAGCCACUGUCCAGAUGGGGCUCAGGCCAGUGGGUGUGGGAUGGGCCAUCUGCAGGAUAGACCUGGCAAGUCCCCUCUGAUAUGGAAUUCUCGGGUGCCAA", "RBNS enrichment (R)": 1.21}
{"data": "Further values, each from its own experiment"}
{"SMILES": "CC(C)(C)c1ccc(-c2nc3c(N4CCN(Cc5ccc6nccnc6c5)CC4)cccc3[nH]2)cc1", "cell line": "mouse MPNST tumor cells", "test": "high-content immunofluorescence imaging, item: nuclear SOX9", "conditions": "10 µM, 12 h, mean of 2 replicates", "how to read": "baseline: DMSO control, higher = more nuclear SOX9", "endpoint": "nuclear SOX9 intensity", "value": "179 % of DMSO"}
{"note": "Excerpt of the above (series 1):"}
{"target": "CDC42BPG (Homo sapiens, UniProt Q6DT37)", "method": "competition binding", "concentration": "0.1 µM", "remaining binding": "80%"}
{"target": "MAP3K9 (Homo sapiens, UniProt P80192)", "observed": "cell-free assay", "method": "competition with immobilised ligand", "concentration": "0.1 µM", "remaining binding": "44%"}
{"target": "ROS1 (Homo sapiens, UniProt P08922)", "observed": "cell-free assay", "method": "competition with immobilised ligand", "concentration": "0.1 µM", "remaining binding": "58%"}
{"target": "WNK1 (Homo sapiens, UniProt Q9H4A3)", "observed": "cell-free assay", "method": "competition with immobilised ligand", "concentration": "0.1 µM", "remaining binding": "100%"}
